Measurements of several laboratories.
Each numbered part is a random draw from the data of one study; scales do not carry over between parts. Changes are numbered by the printed parent chain.

Block 1 — technique: protein binding microarray; molecule type: double-stranded DNA, one strand shown; matrix: in vitro; tested at: not given; relative to: not given; direction: higher = stronger binding
Target: Histone acetyltransferase KAT6A, winged helix 1, GST fusion (KAT6A, Homo sapiens, UniProt Q92794, residues 1-85)
Setting: 8-mer, flanks averaged, mean of 2 arrays, mostly near background
Target sequence (chain): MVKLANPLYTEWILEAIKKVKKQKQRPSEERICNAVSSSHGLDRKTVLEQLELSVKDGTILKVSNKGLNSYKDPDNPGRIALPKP
For `ATCTTGAG`, the E-score was -0.165.
`GGGTCCAA` gave an E-score of -0.0983.
With `CCTCGCAG` the E-score was -0.0733.
With `GTGAAAAA` the E-score was -0.191.
`CATCCAAC` gave an E-score of -0.103.
`GCAGTTCA` has an E-score of -0.0483.
`CGATGCCA` has an E-score of -0.103.
`TGCCTCAA` gave an E-score of -0.0779.

Block 2 — technique: protein-binding microarray; molecule type: double-stranded DNA, one strand shown; matrix: in vitro; tested at: not given; direction: higher = stronger binding
Target: Protein C-ets-1 (ETS1, Homo sapiens, UniProt P14921, residues 1-441, Y397A, full length assumed)
Setting: k-mer, scored over probes, only values ≥0.25
Target sequence (chain): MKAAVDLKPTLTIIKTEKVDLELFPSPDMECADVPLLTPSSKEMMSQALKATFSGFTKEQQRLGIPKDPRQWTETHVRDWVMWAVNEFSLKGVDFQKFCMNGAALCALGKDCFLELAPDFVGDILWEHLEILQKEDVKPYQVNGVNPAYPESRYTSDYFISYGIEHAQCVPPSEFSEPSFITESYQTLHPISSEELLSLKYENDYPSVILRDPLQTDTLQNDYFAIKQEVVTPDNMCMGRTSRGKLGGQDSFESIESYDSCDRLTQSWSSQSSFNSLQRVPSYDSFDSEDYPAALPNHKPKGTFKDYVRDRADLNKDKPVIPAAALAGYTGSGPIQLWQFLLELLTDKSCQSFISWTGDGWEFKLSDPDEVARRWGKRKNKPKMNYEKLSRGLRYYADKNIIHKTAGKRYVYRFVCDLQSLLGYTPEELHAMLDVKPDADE
With `ATCGGAAG` the E-score was 0.309.
The E-score of `CATATAGG` is reported as 0.282.
For `ATGTACGA`, the E-score was 0.337.
With `TGGCGACA` the E-score was 0.283.
`CCCGCAAA` has an E-score of 0.277.
For `CGACATTA`, the E-score was 0.284.
The E-score of `AATTGGCG` is reported as 0.364.
`TATCCGGA` gave an E-score of 0.295.
`GCTGGCAA` gave an E-score of 0.3.
The E-score of `TGGCAAAA` is reported as 0.415.
`GTTTGGCA` gave an E-score of 0.299.
For `CATCCGCA`, the E-score was 0.267.
For `TATGACAA`, the E-score was 0.267.
`AATTTGTA` has an E-score of 0.294.

Block 3 — target: CCNE2, cyclin fold, Cln2 fusion (human); technique: yeast growth competition, sequencing; matrix: yeast; setting: strong parent motif; relative to: not given; direction: higher = stronger binding
Starting sequence: GMNC docking peptide (human); KNAKRNLSSEFAN; partner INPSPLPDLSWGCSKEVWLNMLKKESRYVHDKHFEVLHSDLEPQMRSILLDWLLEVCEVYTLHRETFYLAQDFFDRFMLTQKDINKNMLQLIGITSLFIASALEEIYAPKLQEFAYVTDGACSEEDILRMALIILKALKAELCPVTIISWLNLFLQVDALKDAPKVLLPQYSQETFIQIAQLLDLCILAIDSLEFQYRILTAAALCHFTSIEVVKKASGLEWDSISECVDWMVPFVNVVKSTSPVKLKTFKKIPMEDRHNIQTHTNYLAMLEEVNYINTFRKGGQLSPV
Under “normalised enrichment score”, `S9A` is recorded as 1.62.
`S8G`: “normalised enrichment score” 0.752.
Under “normalised enrichment score”, `K4M` is recorded as 0.512.
`L7N`: “normalised enrichment score” 0.244.
Under “normalised enrichment score”, `K4N` is recorded as 0.512.
`R5V`: “normalised enrichment score” 0.181.
Under “normalised enrichment score”, `N6K` is recorded as 0.243.
Under “normalised enrichment score”, `L7K` is recorded as 0.0444.

Mixed results
`PhoQ, residues 284 288 289 292 302 303 SNGLAW` has a fold induction of 13.4 (PhoP, residues 12 14 15 18 19 STHWV (Escherichia coli, UniProt P23836); Sort-seq, refers to: YFP reporter; E. coli; PhoQ-PhoP variant library, together with: 10 µM Mg2+; relative to: high Mg2+ state, higher = stronger signaling).

Some of these lines once more (block 1):
`GGGTCCAA` gave an E-score of -0.0983.
`CGATGCCA` has an E-score of -0.103.
For `ATCTTGAG`, the E-score was -0.165.
With `GTGAAAAA` the E-score was -0.191.
`GCAGTTCA` has an E-score of -0.0483.
